Measurements from different studies.
Every numbered part comes from another study and shows a few of its results, in no order. Substitutions count along the parent as printed.
UniProt Q8H174, sequence (whole entry, looked up): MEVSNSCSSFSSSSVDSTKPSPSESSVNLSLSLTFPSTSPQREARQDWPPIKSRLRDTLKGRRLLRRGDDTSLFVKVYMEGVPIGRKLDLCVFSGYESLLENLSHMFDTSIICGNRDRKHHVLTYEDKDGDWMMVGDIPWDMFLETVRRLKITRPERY
UniProt Q8L7G0, sequence (whole entry, looked up): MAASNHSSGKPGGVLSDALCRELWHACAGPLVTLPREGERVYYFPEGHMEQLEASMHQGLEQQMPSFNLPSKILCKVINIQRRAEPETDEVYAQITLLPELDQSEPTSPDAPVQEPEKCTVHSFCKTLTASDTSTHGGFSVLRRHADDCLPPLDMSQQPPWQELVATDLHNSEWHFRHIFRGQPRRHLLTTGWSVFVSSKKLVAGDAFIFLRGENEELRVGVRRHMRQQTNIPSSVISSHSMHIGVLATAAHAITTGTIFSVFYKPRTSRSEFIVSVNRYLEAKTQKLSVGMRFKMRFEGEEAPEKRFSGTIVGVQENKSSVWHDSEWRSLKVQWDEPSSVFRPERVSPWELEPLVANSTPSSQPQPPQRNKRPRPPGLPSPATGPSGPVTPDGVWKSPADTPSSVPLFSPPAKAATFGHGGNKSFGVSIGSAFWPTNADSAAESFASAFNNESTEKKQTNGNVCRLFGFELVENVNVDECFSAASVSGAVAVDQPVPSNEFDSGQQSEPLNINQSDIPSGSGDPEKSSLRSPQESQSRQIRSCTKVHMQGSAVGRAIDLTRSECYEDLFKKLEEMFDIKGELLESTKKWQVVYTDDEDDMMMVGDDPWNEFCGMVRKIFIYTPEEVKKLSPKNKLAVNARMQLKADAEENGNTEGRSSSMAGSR
UniProt P93022, sequence (whole entry, looked up): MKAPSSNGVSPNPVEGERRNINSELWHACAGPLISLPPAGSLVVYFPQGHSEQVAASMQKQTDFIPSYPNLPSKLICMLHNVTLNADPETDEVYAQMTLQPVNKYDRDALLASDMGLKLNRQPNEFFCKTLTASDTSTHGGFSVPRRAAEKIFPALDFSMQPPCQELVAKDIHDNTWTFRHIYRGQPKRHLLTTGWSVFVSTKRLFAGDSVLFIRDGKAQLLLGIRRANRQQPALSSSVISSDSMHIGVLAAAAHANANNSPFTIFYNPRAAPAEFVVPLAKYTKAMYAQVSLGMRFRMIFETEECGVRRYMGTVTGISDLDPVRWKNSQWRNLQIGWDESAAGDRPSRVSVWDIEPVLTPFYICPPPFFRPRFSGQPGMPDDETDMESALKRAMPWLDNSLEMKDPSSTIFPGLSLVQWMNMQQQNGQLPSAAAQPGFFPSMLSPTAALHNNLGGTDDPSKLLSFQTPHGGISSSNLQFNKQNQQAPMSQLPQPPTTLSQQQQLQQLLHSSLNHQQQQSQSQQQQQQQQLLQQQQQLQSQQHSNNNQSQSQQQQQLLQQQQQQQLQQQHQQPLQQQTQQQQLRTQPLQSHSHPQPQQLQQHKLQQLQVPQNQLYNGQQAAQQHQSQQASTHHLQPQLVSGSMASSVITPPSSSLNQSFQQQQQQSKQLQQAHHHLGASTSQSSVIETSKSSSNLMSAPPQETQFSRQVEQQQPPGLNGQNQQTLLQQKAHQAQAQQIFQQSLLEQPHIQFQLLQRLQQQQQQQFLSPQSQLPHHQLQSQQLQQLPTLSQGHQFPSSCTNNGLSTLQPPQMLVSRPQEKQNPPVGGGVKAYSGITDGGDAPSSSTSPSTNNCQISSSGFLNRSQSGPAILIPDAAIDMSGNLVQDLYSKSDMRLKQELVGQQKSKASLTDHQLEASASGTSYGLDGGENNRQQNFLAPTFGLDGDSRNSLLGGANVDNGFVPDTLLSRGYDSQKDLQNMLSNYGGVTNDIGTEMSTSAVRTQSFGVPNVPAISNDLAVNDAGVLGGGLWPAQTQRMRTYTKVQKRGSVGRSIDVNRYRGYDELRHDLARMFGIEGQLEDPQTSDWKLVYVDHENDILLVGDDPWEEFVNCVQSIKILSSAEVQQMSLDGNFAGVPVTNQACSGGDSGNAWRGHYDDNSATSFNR
UniProt Q9SKN5, sequence (whole entry, looked up): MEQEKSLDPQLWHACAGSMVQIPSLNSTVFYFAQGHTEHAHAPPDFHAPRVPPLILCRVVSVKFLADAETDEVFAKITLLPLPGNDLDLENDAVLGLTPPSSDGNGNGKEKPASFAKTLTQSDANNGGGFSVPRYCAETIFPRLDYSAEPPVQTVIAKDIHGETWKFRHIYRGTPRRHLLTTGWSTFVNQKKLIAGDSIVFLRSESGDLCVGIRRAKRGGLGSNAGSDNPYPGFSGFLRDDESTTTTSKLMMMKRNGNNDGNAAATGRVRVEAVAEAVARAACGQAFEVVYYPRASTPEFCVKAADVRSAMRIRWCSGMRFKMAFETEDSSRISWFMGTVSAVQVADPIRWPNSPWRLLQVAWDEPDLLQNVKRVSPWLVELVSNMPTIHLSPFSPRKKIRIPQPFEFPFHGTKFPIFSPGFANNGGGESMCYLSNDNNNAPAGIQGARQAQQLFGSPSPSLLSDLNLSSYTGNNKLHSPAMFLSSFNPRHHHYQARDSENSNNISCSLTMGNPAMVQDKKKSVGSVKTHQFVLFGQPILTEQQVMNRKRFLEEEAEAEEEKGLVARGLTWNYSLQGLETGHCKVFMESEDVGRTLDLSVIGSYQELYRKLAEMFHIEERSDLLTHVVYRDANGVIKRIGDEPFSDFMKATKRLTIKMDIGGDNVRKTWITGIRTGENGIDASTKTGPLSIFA
UniProt O24409, sequence (whole entry, looked up): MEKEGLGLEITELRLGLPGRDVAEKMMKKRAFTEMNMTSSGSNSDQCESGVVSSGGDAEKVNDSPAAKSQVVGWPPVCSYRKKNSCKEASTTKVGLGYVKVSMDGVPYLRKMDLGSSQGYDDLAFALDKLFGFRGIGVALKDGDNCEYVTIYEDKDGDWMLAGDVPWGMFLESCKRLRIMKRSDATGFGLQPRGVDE
UniProt Q9M1R4, sequence (whole entry, looked up): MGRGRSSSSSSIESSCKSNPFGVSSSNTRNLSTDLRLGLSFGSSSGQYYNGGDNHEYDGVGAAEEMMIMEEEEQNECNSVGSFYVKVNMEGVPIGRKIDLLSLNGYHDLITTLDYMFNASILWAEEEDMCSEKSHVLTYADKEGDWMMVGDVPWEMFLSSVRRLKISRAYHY
UniProt Q9FKM7, sequence (whole entry, looked up): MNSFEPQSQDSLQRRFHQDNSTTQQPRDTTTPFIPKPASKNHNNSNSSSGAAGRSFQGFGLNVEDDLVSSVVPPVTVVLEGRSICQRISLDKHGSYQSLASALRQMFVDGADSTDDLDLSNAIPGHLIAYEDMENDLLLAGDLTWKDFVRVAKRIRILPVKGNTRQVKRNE

Series 1
Target: Max-binding protein MNT, bHLH-zipper, MAX partner unstated (MNT, Homo sapiens, UniProt Q99583, residues 220-300)
Technique: protein-binding microarray
Form: double-stranded DNA, one strand shown
Matrix: in vitro
Tested at: not given
Notes: k-mer, scored over probes, only values ≥0.25
Direction: higher = stronger binding
Construct (chain): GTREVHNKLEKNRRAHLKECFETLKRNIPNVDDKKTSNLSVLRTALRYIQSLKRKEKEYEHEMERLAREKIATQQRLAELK
Oligonucleotide | E-score
GTGGGGTA | 0.273
CATGGGAA | 0.277
CCGCCACG | 0.336
ACCATGGT | 0.27
GTGTGCGA | 0.27
AACACATG | 0.459
CTCCCGCC | 0.255
CAGGTGGC | 0.327

Series 2
Molecule: B1 (IAA13)
Technique: two-hybrid
Direction: higher = firmer interaction
B1: IAA13 (Arabidopsis thaliana, UniProt Q38831); chain MITELEMGKGESELELGLGLSLGGGTAAKIGKSGGGGAWGERGRLLTAKDFPSVGSKRAADSASHAGSSPPRSSSQVVGWPPIGSHRMNSLVNNQATKSAREEEEAGKKKVKDDEPKDVTKKVNGKVQVGFIKVNMDGVAIGRKVDLNAHSSYENLAQTLEDMFFRTNPGTVGLTSQFTKPLRLLDGSSEFVLTYEDKEGDWMLVGDVPWRMFINSVKRLRVMKTSEANGLAARNQEPNERQRKQPV
partner | conditions | how to read | positive tests
IAA19 (Arabidopsis thaliana, UniProt O24409) |  | baseline: out of 4 tests | 2
ARF1 538-665 (Arabidopsis thaliana, UniProt Q8L7G0) |  | baseline: out of 4 tests | 0
IAA30 (Arabidopsis thaliana, UniProt Q9M1R4) | weak activation fusion | baseline: out of 4 tests | 3
ARF10 575-693 (Arabidopsis thaliana, UniProt Q9SKN5) |  | baseline: out of 4 tests | 0
ARF7 1030-1164 (Arabidopsis thaliana, UniProt P93022) |  | baseline: out of 4 tests | 3
IAA33 (Arabidopsis thaliana, UniProt Q9FKM7) |  | baseline: out of 2 tests | 0
IAA31 (Arabidopsis thaliana, UniProt Q8H174) |  | baseline: out of 2 tests | 0

Series 3
Target: Histone acetyltransferase KAT6A, winged helix 2, GST fusion (KAT6A, Homo sapiens, UniProt Q92794, residues 85-181)
Technique: protein binding microarray
Form: double-stranded DNA, one strand shown
Matrix: in vitro
Tested at: not given
Notes: 8-mer, flanks averaged, mean of 2 arrays, mostly near background
Baseline: not given
Direction: higher = stronger binding
Target sequence (chain): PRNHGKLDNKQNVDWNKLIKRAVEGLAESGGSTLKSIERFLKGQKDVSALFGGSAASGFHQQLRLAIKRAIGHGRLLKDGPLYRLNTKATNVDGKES
Oligonucleotide | E-score
ATGACCCA | -0.0694
GCTCGACA | -0.0306
AACATTCC | -0.056
AACGTGAA | -0.242
CAGGTTGG | 0.138
GCGACACA | -0.0576
ATGTTAAC | -0.152
TAATTGTA | 0.0676

Further values, each from its own experiment
Starting sequence: viral docking peptide; PGASRRLFGSSAD; partner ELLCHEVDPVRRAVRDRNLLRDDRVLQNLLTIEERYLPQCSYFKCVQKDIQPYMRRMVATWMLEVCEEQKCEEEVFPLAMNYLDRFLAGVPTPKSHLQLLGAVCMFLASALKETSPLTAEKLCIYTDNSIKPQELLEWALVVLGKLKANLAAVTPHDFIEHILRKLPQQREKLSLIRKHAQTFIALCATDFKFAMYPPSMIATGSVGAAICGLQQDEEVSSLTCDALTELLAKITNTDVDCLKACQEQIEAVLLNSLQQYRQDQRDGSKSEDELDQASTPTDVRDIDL
Change | target | assay | test system | conditions | how to read | endpoint | value
PGASRALFGSSAD [R6A] | CCND2, cyclin fold, Cln2 fusion (human) | yeast growth competition, sequencing | yeast | weak parent motif | baseline: not given, higher = stronger binding | normalised enrichment score | 0.158

Excerpt of the above (series 1):
Oligonucleotide | E-score
CTCCCGCC | 0.255
CAGGTGGC | 0.327
ACCATGGT | 0.27
AACACATG | 0.459
